Experimental data pooled from the literature.
Each numbered part is a random draw from the data of one study; scales do not carry over between parts. Several values in a cell are separate wells, animals, samples, runs or records.
Chain of UniProt P28566 (whole entry, looked up): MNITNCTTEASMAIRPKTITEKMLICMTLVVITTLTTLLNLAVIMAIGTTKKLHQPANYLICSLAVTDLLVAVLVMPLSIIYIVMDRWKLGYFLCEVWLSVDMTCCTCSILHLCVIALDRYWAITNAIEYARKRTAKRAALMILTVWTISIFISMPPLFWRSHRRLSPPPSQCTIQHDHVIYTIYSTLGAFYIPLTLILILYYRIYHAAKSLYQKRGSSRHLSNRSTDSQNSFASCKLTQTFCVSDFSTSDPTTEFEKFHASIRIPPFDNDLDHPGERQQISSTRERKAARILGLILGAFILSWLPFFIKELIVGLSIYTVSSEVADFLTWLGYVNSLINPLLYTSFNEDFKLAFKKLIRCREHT

Series 1
Target: MAP kinase-interacting serine/threonine-protein kinase 1 (MKNK1, Homo sapiens, UniProt Q9BUB5)
Chain of UniProt Q9BUB5 (whole entry, looked up): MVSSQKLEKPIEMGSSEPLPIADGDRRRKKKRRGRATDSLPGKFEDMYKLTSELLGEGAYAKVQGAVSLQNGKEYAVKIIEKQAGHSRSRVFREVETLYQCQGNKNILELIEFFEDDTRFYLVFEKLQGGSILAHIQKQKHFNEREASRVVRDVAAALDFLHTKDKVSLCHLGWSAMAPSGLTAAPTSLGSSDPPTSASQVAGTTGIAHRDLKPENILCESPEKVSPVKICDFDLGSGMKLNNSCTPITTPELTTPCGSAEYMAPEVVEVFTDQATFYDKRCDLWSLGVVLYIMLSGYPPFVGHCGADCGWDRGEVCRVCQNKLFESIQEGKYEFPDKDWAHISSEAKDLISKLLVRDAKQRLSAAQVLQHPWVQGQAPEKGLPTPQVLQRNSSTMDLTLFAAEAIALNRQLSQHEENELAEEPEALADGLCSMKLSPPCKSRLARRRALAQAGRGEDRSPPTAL
Read-out: enzyme activity
Mode: inhibitor
Concentration: 0.5 µM
Relative to: control
The remaining activity of c1ccc2c(-c3ccncc3)c[nH]c2c1 is reported as 75.5%.
With Cc1ccc(S(=O)(=O)/C=C/C#N)cc1 the remaining activity was 99.4%.
CN(C)S(=O)(=O)c1ccc2c(c1)/C(=C/c1cc3c([nH]1)CCCC3)C(=O)N2 gave a remaining activity of 108%.

Further values, each from its own experiment
For O=C(O)Cc1ccc(-c2ccccc2)cc1, the viability was 98.8% (A-375; 100 µM, 60 h).
For CC(C)S(=O)(=O)c1ccc2nccc(Nc3ccc4sc(C5CCCC5)nc4c3)c2c1.Cl, the caspase-3 activity was -0.0035 a.u. and 0.019 a.u. and 0.0075 a.u. and 0.015 a.u. and 0.011 a.u. (L929; caspase activity, Ac-DEVD-pNA absorbance; 50 µM, 0 h; higher = more activity).
For CC(CCc1ccc(O)cc1)NCC(O)c1ccc(O)cc1 (stereo not drawn), the viability was 110% (A-375; 100 µM, 60 h).
The inhibition of CCC(=O)N[C@@H]1CC[C@H](C(=O)N(C)c2ccc(-c3nc4ccccc4o3)cc2)C1 is reported as -5.68% (HTR1E (Homo sapiens, UniProt P28566); ligand displacement, radioligand; 10 µM).
O=C(O)CN(CCN(CC(=O)O)CC(=O)O)CC(=O)O has a viability of 101% (A-375; 100 µM, 60 h).
The IC50 of Cc1cc2c(C(N)=O)c(N)n(-c3c(C)ccc(O)c3C)c2nc1C is reported as 36.1 nM (HCC1569; CDK1 phosphorylation, Jess capillary immunoassay, item: CDK1 phospho-Thr14; 24 h).

Repeated from above (further values, each from its own experiment):
O=C(O)CN(CCN(CC(=O)O)CC(=O)O)CC(=O)O has a viability of 101% (A-375; 100 µM, 60 h).
